Assay results pooled from the literature.
A part holds a random share of what one study measured. Substitutions count along the parent as printed.

Set 1
Target: Histone acetyltransferase KAT6A, both winged helices, GST fusion (KAT6A, Homo sapiens, UniProt Q92794, residues 1-181)
Method: protein binding microarray
Form: double-stranded DNA, one strand shown
Medium: in vitro
Tested at: not given
Setting: 8-mer, flanks averaged, mean of 2 arrays, mostly near background
Relative to: not given
Direction: higher = stronger binding
Measurement: E-score
Residues (chain): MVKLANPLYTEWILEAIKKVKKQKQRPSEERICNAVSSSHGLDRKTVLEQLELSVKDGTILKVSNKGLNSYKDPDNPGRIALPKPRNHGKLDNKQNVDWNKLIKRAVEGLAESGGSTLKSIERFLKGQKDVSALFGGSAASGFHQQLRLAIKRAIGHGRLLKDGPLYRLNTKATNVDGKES
CCGGCGCG: 0.361
ATAGCAAA: -0.0858
GTCATCGA: -0.0239
AGGCACTG: -0.23
AACCGACG: 0.264
GGATTGAA: -0.0648
CTCTTCGC: 0.0686
CGGGTGAA: 0.157
AGACCGAT: 0.0219
ATGGACAC: -0.0844
CGGTTCCC: 0.137
CACGGGTC: 0.228
ATCGGACA: 0.0505
AATGGTAA: -0.0925
AAGTTGGT: -0.225
CACCCTAC: -0.188
AGTAACTG: -0.158
AGTAAGAG: -0.124
GGAATGGA: 0.0326
CGCACCAG: 0.158
CGAATCCC: -0.0342
CAGGACTC: -0.17
TCACAACA: 0.101
CTTCACTA: -0.11
CATTGCGA: 0.0624

Set 2
Target: Sal-like protein 4, full length isoform B (SALL4, Homo sapiens, UniProt Q9UJQ4-2, residues 1-616)
Method: universal PBM
Form: double-stranded DNA, one strand shown
Medium: in vitro
Tested at: not given
Setting: 8-mer, flanks averaged, mean of replicates
Direction: higher = stronger binding
Measurement: E-score
CACGCCCG: -0.241
AACGATTG: 0.154
ATTTAAGC: 0.168
ATTTATTG: 0.328
GTCCAGGA: -0.0422
TCCGCGGA: -0.15
ATTTGTGG: 0.154
GGACGCCA: -0.328
AGGTGACT: 0.0266
CTGTATTA: 0.276
CCTGTCTA: 0.0484
AAATGGCC: -0.126
ACCCTAAC: -0.0111
TCACAGGA: 0.0731
CAGAACCG: -0.24
AAGACAGA: 0.132
GCACTGCA: -0.206
AGAAATAC: 0.171
CTCGCTCC: -0.239
AATCCTCG: -0.165
CGACACAC: 0.13
CTCAGTAA: 0.0413

Set 3
Target: RNA binding protein fox-1 homolog 2, RRM domain, GST-SBP tag (RBFOX2, Homo sapiens, UniProt O43251-10, residues 100-194)
Method: RNA Bind-n-Seq
Form: RNA
Medium: in vitro
Tested at: 365 nM
Setting: natural RNA segment, single round, ends assumed
Relative to: no-protein control
Direction: higher = stronger binding
Measurement: RBNS enrichment (R)
Shared flanks, not repeated: GGGAGUUCUACAGUCCGACGAUC … UGGAAUUCUCGGGUGCCAA
Construct (chain): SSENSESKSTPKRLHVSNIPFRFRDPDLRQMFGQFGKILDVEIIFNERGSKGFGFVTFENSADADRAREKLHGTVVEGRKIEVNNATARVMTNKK
UUACUGAACAUGUCCGCAUCAACCCUCUGAGAAUAACUUGGUCACUUUAUGAAGGGGCGUUUUUAAGUUGUUUAGCAGUGACAUUUAAUAUGGUCCAAUUGCUUUUCUUU: 0.514
AUUAAUUGAAUCUAGUAUAUGCGGGAUGUACGACAUUUUGUGACUGAAGAGACUUGUUUCCUUCUACUUUUAUGUGUCUCAGAAUAUUUUUGAGGCGAAGGCGUCUGUCU: 0.532
UUGAUUUGUUGGUUCAUGCCAAGUGUGUUCCACAGGUUGACUUUGAAUGUGGACCUCUGAGCAUCCACGCAGGAUGGCUCUCAGGUCCCAGUCACAGACGUCGCUUCCUG: 0.319
GUAACACAUAGGGCAGGUACCUACUGAGGCACCCAGGCUUCUAAAAACUGUUCUCAGGACCUUGGGCUCUGGGCAGUCUGUCAGUACCAAGCCUUUAUGCCUAUGAGAAC: 0.39
CCAGACAGCCCCAAGCUUCUGAGUCUAGAUACAGAAGCCCAUGUCUUCUGCUGUUCUUCACUUCUGGGAAAUUGAAGUGUCUUCUGUUCCCAAGGAAGCUCCUUCCUGUU: 0.257
ACCCAUCACUUUAAAUCCUUAAAGUUAGAAGCUAGCAAAUUUUCUGUAGUGCAGAACGUUUAUUGCUGUUUUUGUGUUUGAAUAGUAUAAUGUUUGAUGCCUCUCUUCUG: 0.282
CCAUGUGCGAGGGAGGUGGUCAGCUGUCAAUAUGCCUUAGUAUGUUUAUAUGAGUUUGUUUUGUUCUAAAAUACCCAAACAGUUCUGGUCAAGCGGGGCUAUGCCCGUCU: 2.15
UUUUCUUUCUCUUUUUUUUUUUUGUAUAUUAUUGUUUACAAUAAAUAUACAUUGCAUUAAAAAGAAAGUGGCCCUGUGGAUUUAUUCACCCAGUUCUCCUGUUGGAUGAU: 0.471

Set 4
Target: ABI1, truncated, D143A, DHFR fusion (Arabidopsis thaliana)
Method: DHFR PCA, deep sequencing
Medium: yeast
Setting: methotrexate growth selection, single substitutions
Added: (+)-ABA 2500 µM
Relative to: wild-type fitted maximum
Direction: higher = stronger binding
Measurement: relative binding score
Starting sequence: PYL1, truncated, DHFR fusion (Arabidopsis thaliana); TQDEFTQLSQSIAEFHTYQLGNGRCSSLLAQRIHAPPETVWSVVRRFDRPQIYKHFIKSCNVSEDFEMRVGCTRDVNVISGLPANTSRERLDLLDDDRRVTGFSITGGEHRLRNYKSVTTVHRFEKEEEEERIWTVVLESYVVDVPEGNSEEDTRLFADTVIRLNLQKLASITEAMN; partner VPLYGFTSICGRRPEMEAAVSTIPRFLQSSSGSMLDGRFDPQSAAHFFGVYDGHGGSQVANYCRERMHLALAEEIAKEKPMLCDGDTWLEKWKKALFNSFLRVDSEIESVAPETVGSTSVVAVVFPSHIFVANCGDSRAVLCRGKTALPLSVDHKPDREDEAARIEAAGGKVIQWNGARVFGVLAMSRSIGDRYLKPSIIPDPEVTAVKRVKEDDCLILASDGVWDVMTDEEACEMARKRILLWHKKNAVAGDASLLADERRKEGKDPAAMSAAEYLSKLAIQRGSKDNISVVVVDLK
R113S: 108%
L164R: 97.3%
A35F: 53.7%
L138R: 60.4%
E129K: 106%
S26L: 74.9%
V161D: -7.35%
R123D: 101%
R90F: 75.3%
H16E: 53.6%
R45G: 78%
F124N: 94%
V43M: 91.6%

Set 5
Target: CCNB3, cyclin fold, Cln2 fusion (human)
Method: yeast growth competition, sequencing
Medium: yeast
Setting: strong parent motif
Relative to: not given
Direction: higher = stronger binding
Measurement: normalised enrichment score
Starting sequence: E2F1 docking peptide (human); PPVKRRLDFETDH
E10T: 2.62
D12H: 2.98
K4W: 2.24
R6F: 0.561
K4M: 1.25
F9R: -0.0803
L7T: -0.0531
R6S: 1.3
R5A: 0.326
V3N: -0.0303
R5L: 0.401
D12R: 3.34
D12Y: 3.29

A few entries again (set 4):
R113S: 108%
L164R: 97.3%
A35F: 53.7%
L138R: 60.4%
E129K: 106%
S26L: 74.9%
V161D: -7.35%
R123D: 101%
R90F: 75.3%
H16E: 53.6%
R45G: 78%
